Published values of several laboratories.
Lines come from different studies, so protocols differ. Numbers after ± are the reported error. ≈ marks a conversion by molar mass, not a printed value.
Organism: Mycobacterium tuberculosis

Structure (SMILES)	test	system	conditions	scale	measurement	result
CCCCCCC#Cc1cncc(-c2nnc(SCc3cc([N+](=O)[O-])cc([N+](=O)[O-])c3)n2C)c1	resazurin reduction	H37Rv mc2-6206 wild type	–	–	MIC80	2.2 µM (≈ 1.06 µg/mL)
Cc1nc(-c2ccc(OCCc3cccc(F)c3)c(C(N)=O)c2)cs1	growth	H37Rv-LP	120 h	–	IC90	3.1 ± 0.1 µM
O=c1c2c(Cl)cccc2[nH]c(=S)n1Cc1cccnc1	–	PptT conditional knockdown	–	–	MIC90	> 100 µM
CC(=O)c1cc(-c2ccsc2)ccc1OCCc1cccc(F)c1	–	H37Rv-LP	–	reference: HepG2 CC50 over Mtb IC90	selectivity index	160
O=C(OCc1cc2[nH]c(=S)n(Cc3cncnc3)c(=O)c2cc1Cl)Oc1ccccc1	–	PptT conditional knockdown	–	–	MIC90	0.33 µM (≈ 0.15 µg/mL)
CCc1ccc(OCCc2cccc(F)c2)c(C(N)=O)c1	–	H37Rv-LP	–	reference: HepG2 CC50 over Mtb IC90	selectivity index	28
Nc1c(C(=O)NCc2ccccc2)sc2nc(-c3ccccc3)ccc12	growth inhibition	H37Rv LepB under-expressing	–	–	IC50	14 ± 10 µM
Cc1ccc(OCCc2cc(F)cc(F)c2)c(C(N)=O)c1	–	H37Rv-LP	–	reference: HepG2 CC50 over Mtb IC90	selectivity index	30
COc1ccc(-c2cc(C(F)(F)F)c3c(N)c(C(=O)NCC45CC6CC(CC(C6)C4)C5)sc3n2)cc1	–	H37Rv wild type	–	reference: HepG2 IC50 over M. tuberculosis IC90	selectivity index	> 71
Nc1cccc(F)c1C(=O)NNc1ccc(C(F)(F)F)cc1	–	H37Rv	336 h	–	MIC99	1.56 to 2.84 µM (≈ 0.489 to 0.89 µg/mL)
CN1CCN(c2ccc(Nc3nccc(-c4ccc5ccccc5c4)n3)cc2C(F)(F)F)CC1	–	H37Rv auxotroph	–	–	MIC	12.5 µM (≈ 5.79 µg/mL)
COc1ccc(-c2cc(C(F)(F)F)c3c(N)c(C(=O)N4CCCC4(C)C)sc3n2)cc1	–	H37Rv wild type	120 h	–	IC90	inactive
O=c1c2cc(C(F)(F)F)ncc2[nH]c(=S)n1Cc1cccnc1	–	PptT conditional knockdown	–	–	MIC90	0.97 µM (≈ 0.328 µg/mL)
COc1ccc(-c2cc(C(F)(F)F)c3c(N)c(C(=O)NC45CC6CC(CC(C6)C4)C5)sc3n2)cc1	–	H37Rv wild type	–	reference: HepG2 IC50 over M. tuberculosis IC90	selectivity index	> 91
COCc1cc2[nH]c(=S)n(Cc3cccnc3)c(=O)c2cc1Cl	–	PptT conditional knockdown	–	–	MIC90	0.82 µM (≈ 0.285 µg/mL)
[H]/N=C(/N)N[C@H]1[C@H](O)[C@@H](O)[C@H](O[C@@H]2O[C@@H](C)[C@](O)(C=O)[C@H]2O[C@@H]2O[C@@H](CO)[C@H](O)[C@@H](O)[C@@H]2NC)[C@@H](N/C(N)=N\[H])[C@@H]1O	time-kill	H37Rv	concentration not given, 7 days	–	kill rate	0.17 h⁻¹
C[C@H]1CC[C@H](NC(=O)CNc2ccc(Cl)cc2)CC1	–	H37Rv mc2 6206	concentration not given, 168 h	–	activity	inactive
CNC(=O)c1cc(C(F)F)ccc1OCCc1cccc(F)c1	growth	H37Rv-LP	120 h	–	IC90	2.4 ± 0.25 µM
CN(C)C(=O)c1sc2nc(-c3ccccc3)ccc2c1N	growth inhibition	H37Rv LepB under-expressing	–	–	IC50	13 ± 9 µM
O=c1c2cc(Cl)ncc2[nH]c(=S)n1Cc1cccnc1	–	PptT conditional knockdown	–	–	MIC90	0.35 µM (≈ 0.107 µg/mL)
COc1ccc(-c2cc(C(F)(F)F)c3c(N)c(C(=O)N4CC(C)OC(C)C4)sc3n2)cc1 (stereo not drawn)	–	H37Rv wild type	–	reference: HepG2 IC50 over M. tuberculosis IC90	selectivity index	< 1
Cc1cscc1-c1ccc(OCCc2cccc(F)c2)c(C(N)=O)c1	–	H37Rv-LP	–	reference: HepG2 CC50 over Mtb IC90	selectivity index	26
O=c1[nH]c2ccc(Cl)cc2c(=S)n1Cc1cccnc1	–	PptT conditional knockdown	–	–	MIC90	> 100 µM
CCC(NC(=O)c1sc2nc(-c3ccc(OC)cc3)cc(C(F)(F)F)c2c1N)c1ccccc1 (stereo not drawn)	–	H37Rv wild type	–	reference: HepG2 IC50 over M. tuberculosis IC90	selectivity index	> 135

Excerpt of the above:
Structure (SMILES)	test	system	conditions	scale	measurement	result
CN(C)C(=O)c1sc2nc(-c3ccccc3)ccc2c1N	growth inhibition	H37Rv LepB under-expressing	–	–	IC50	13 ± 9 µM
Nc1c(C(=O)NCc2ccccc2)sc2nc(-c3ccccc3)ccc12	growth inhibition	H37Rv LepB under-expressing	–	–	IC50	14 ± 10 µM
